Measurements of several laboratories.
Lines come from different studies, so protocols differ. ± marks the error that the study gave.

The concentration of `CN1CCCC1CCNS(=O)(=O)c1ccc2c(c1)CN(CC1CCCCC1)CC2` (centres unmarked) is reported as 11.8 ng/g (THY-Tau22 mouse, pons/cerebellum; oral in diet, 0.002% in diet, 6 months, sampled at 8 p.m.).
`O=c1cc(-c2ccc(O)cc2)oc2c([C@@H]3OC[C@H](O)[C@H](O)[C@H]3O)c(O)c([C@@H]3O[C@H](CO)[C@@H](O)[C@H](O)[C@H]3O)c(O)c12` gave a concentration of 0.72 ng/g (UHPLC-MS/MS; C57BL/6J mouse, whole blood; oral, dose not given).
`Cn1cc([C@H]2C[C@H]3CSC(N)=N[C@@]3(c3ccc(F)cc3F)CO2)cn1` has a concentration of 0.069 µM (mouse 129/SVE male, plasma; subcutaneous, 3 mg/kg, 3 h).
`O=C(N[C@H](Cc1c[nH]c2ccccc12)C(=O)Nc1ccncc1)c1ccc(-c2ccc(F)c(Cl)c2)cc1F` gave a concentration of 7.7 µM (Swiss Webster mouse, female, plasma; oral, 50 mg/kg, 8 h, 20% Kolliphor vehicle).
Under concentration, `CSc1cc(C)nc(SC)c1NC(=O)CN1CCN(CCSc2nc3ccccc3[nH]2)CC1.Cl` is recorded as “not detected” (mouse, cerebrum; intranasal, 10 µL in 0.01 N HCl daily, 120 min, 7 days dosing).
`CN(C)C(=O)c1cc2cnc(Nc3ccc(-c4ccc5c(=O)cc(N6CCOCC6)oc5c4)cc3)nc2n1C1CCCC1` has a concentration of 2340 ± 1830 ng/g (BALB/c mouse, kidney; oral, 20 mg/kg, 2 h).
`CC(C)(C)c1cc(NC(=O)Nc2ccc(Oc3ccnc4[nH]c(=O)cnc34)cc2F)n(-c2ccccc2)n1` has a concentration of 7.74 µM (nude mouse (female), tumor; oral, 20 mg/kg, 1 h after last dose, end of therapy).
The concentration of `COc1ccc2c3c([nH]c2c1)[C@H](CC(C)C)N1C(=O)[C@H](CC(=O)NC(C)C)NC(=O)[C@@H]1C3` is reported as 0 µM (wild-type mouse, male, serum; oral, 100 mg/kg, 0 h).
With `O=C(N[C@H](Cc1c[nH]c2ccccc12)C(=O)Nc1ccncc1)c1ccc(N2CCN(c3ccc(F)cc3F)CC2)cc1F` the concentration was 17.6 µM (Swiss Webster mouse, female, heart; oral, 50 mg/kg, 2 h, 20% Kolliphor vehicle).
`CSc1cc(Oc2ccnc3[nH]c(=O)cnc23)ccc1NC(=O)Nc1cc(C(C)(C)C)nn1-c1ccccc1` has a concentration of 48.6 µM (NSG mouse (female), plasma; oral, 20 mg/kg, 1 h after last dose, end of therapy).
`O=S(=O)(c1ccc(-c2ccc3nccc(Nc4ccncn4)c3c2)cc1)N1CCOCC1` has a concentration of 1980 ng/mL (female BALB/c mouse, plasma; intraperitoneal, 10 mg/kg, 0.08 h).

A few entries again:
`CSc1cc(Oc2ccnc3[nH]c(=O)cnc23)ccc1NC(=O)Nc1cc(C(C)(C)C)nn1-c1ccccc1` has a concentration of 48.6 µM (NSG mouse (female), plasma; oral, 20 mg/kg, 1 h after last dose, end of therapy).
